Results pooled from the literature.
Several values in a cell are separate wells, animals, samples, runs or records. Numbers after ± are the reported error.

Structure (SMILES) | test | test system | setting | scale | endpoint | result
CO[C@H]1/C=C/O[C@@]2(C)Oc3c(C)c(O)c4c(c3C2=O)C2=NC3(CCN(CC(C)C)CC3)NC2=C(NC(=O)/C(C)=C\C=C\[C@H](C)[C@H](O)[C@@H](C)[C@@H](O)[C@@H](C)[C@H](OC(C)=O)[C@@H]1C)C4=O | – | CD-1 mouse female, plasma | intravenous, 5 mg/kg | – | elimination rate constant | 4.44e-05 s⁻¹
O=C(O)[C@H]1O[C@@H](Oc2cc(O)cc(/C=C\c3ccc(O)cc3)c2)[C@H](O)[C@@H](O)[C@@H]1O | – | human, cerebrospinal fluid | – | – | samples above LOQ | 0%
Cc1cc(-c2nccc3c2ccn3CC(=O)Nc2ccc(-c3cnccn3)cn2)ccn1 | – | human, plasma | oral, 20 mg once daily, day 16, geometric mean | – | AUCtau | 2.59 µM·h
C[C@H](NC(=O)/C(C#N)=C/c1cccc(Br)n1)c1ccccc1 | LC-MS/MS | patients, plasma | oral, 2 mg/kg, cycle 1 day 1 | – | AUC(all) | 80 ng·h/mL
C=CCN1CC(=O)N2[C@@H](Cc3ccc(O)cc3F)C(=O)N(Cc3cccc(N4CC(N5CCN(CC)CC5)C4)n3)C[C@@H]2N1C(=O)NCc1ccccc1 | – | advanced solid tumour patients | oral, 160 mg twice daily, any grade, dose-escalation | – | treatment-related AST increased | 50%
CC[C@@](O)(c1cnc(C(F)(F)F)c(Cl)c1)c1c2cnn(C3CC3)c(=O)c2nn1C | – | rat Sprague-Dawley male, plasma | intravenous, 1 mg/kg | – | CL | 2.07 ± 0.284 mL/min/kg
CN(C)c1cc(NC(=O)CNC(C)(C)C)c(O)c2c1C[C@H]1C[C@H]3[C@H](N(C)C)C(O)=C(C(N)=O)C(=O)[C@@]3(O)C(O)=C1C2=O | starch gel membrane permeability | Gram-negative envelope surrogate | 200 µM, 60 min, pH 7.4 | – | amount permeated | 2.54 nmol
O=C(Nc1nc2cccc(-c3ccc(CN4CCS(=O)(=O)CC4)cc3)n2n1)C1CC1 | refers to: joint swelling | human rheumatoid arthritis patients | oral, 200 mg once daily, 4 weeks, regardless of relatedness | – | treatment-emergent adverse events | 8.3%
Cn1c(=O)[nH]c(=O)c2[nH]cnc21 | – | human, both sexes, plasma | – | – | samples above LOQ | 100%
CO[C@H]1C[C@@H]2CC[C@@H](C)[C@@](O)(O2)C(=O)C(=O)N2CCCC[C@H]2C(=O)O[C@H]([C@H](C)C[C@@H]2CC[C@@H](OC(=O)NCCOCCOCCOCCOCCOCCOCCOCCOCCC(=O)N3CCc4cc(Cn5nc(-c6ccc7oc(N)nc7c6)c6c(N)ncnc65)ccc4C3)[C@H](OC)C2)C[C@@H](O)[C@H](C)/C=C(\C)[C@@H](O)[C@@H](OC)C(=O)[C@H](C)C[C@H](C)/C=C/C=C/C=C/1C | – | human, plasma | intravenous, 8 mg, cycle 1 day 15, arithmetic mean | – | Cmax | 590 ng/mL
O=C(O)CNC(=O)c1ccc(O)cc1 | – | human plasma | median | – | plasma concentration | 6040 nM
CC1CCNc2c(C(=O)NC/C=C/S(C)(=O)=O)cccc21 (centres unmarked) | – | uninfected mouse, serum | 300 mg/kg | – | serum ALT | 30 U/L and 40 U/L
O=C(O)[C@H]1O[C@@H](Oc2ccc(/C=C\c3cc(O)cc(O)c3)cc2)[C@H](O)[C@@H](O)[C@@H]1O | – | human, cerebrospinal fluid | – | – | samples above LOQ | 0%
CN(C(=O)n1cnc(-c2cccnc2)c1)C1CCCCC1 | – | Wistar rat, cerebellum | oral, 10 mg/kg of BIA 10-2474, 1 h, single dose | – | concentration | 64.5 ± 13.4 ng/g
C[C@@H]1COCCN1c1cc(C2([S@](C)(=N)=O)CC2)nc(-c2cc[nH]c3nccc2-3)n1 | – | Japanese advanced solid tumour patients | oral, 240 mg twice daily, any grade | – | Diarrhea incidence | 16.7%
COc1cccc(OC)c1-c1cc(C(=O)NC2(C(=O)O)C3CC4CC(C3)CC2C4)nn1-c1ccc(C(=O)N(C)CCCN(C)CCCN(C)C(=O)CN2CCN(CC(=O)[O-])CCN(CC(=O)[O-])CCN(CC(=O)[O-])CC2)cc1C(C)C.[177Lu+3] (centres unmarked) | – | mouse HT-29 xenograft, small intestine | 4 h post injection, biodistribution | – | tissue uptake | 3.2 %ID/g
O=S(=O)(O)Oc1ccc(CCO)cc1O | – | human plasma | median | – | plasma concentration | 16.1 nM
O=C(NC[C@H]1CN(c2ccc(N3CCOCC3=O)cc2)C(=O)O1)c1ccc(Cl)s1 | Phoenix NLME, model A | human, atrial fibrillation patients, plasma | oral | – | typical population clearance | 89 mL/min
OC[C@H]1O[C@@H](c2ccc(F)c(Cc3cc4ccccc4s3)c2)[C@H](O)[C@@H](O)[C@@H]1O | – | Japanese type 1 diabetes patients | oral, 50 mg/day | reference: patients | hypoglycaemia adverse events | 7%
COc1cc(C=CC(=O)O)ccc1O[C@@H]1O[C@H](C(=O)O)[C@@H](O)[C@H](O)[C@H]1O | – | human plasma | median | – | plasma concentration | 2360 nM
CCN1/C(=C/C(C)=O)Sc2ccc(F)cc21 | – | cynomolgus monkey | oral, 30 mg/kg, 6 h post-dose | – | systolic blood pressure | 115 ± 6 mmHg
CCOC(=O)[C@@]12C[C@@H]1[C@@H](n1ccc3c(NC)nc(C#Cc4ccc(Cl)s4)nc31)[C@H](O)[C@@H]2O | – | Sprague-Dawley rat, male, plasma | oral, 3.00 mg/kg | – | AUC extrapolated share | 1.7%

Structure (SMILES) | test | test system | setting | scale | endpoint | result
O=C(O)CCC(=O)O.[2H]C([2H])([2H])Oc1cc(C)c2[nH]ccc2c1CN1CC[C@@H](C2CC2)C[C@H]1c1ccc(C(=O)O)cc1 | multiple ascending dose | healthy Chinese subjects | 300 mg once daily | – | subjects with TEAE Anemia | 12.5%
CCc1c(-c2ccccc2)c(-c2ccccc2)nn1-c1ccccc1-c1cccc(OCC(=O)O)c1 | – | Sprague-Dawley rat | intravenous, dose not given | – | AUC extrapolated observed | 0.628% and 1.96% and 0.998%
CC(C)NCC(O)COc1cccc2ccccc12 (centres unmarked) | PAMPA | brain lipid membrane | 10 µM, 4 h | – | permeability coefficient | 6.89 ×10⁻⁶ cm/s
CNC(=O)c1ccc(-c2cnc3ncc(Cc4ccc5ncccc5c4)n3n2)cc1F | refers to: Anemia, all grades | hepatocellular carcinoma patients | oral, 600 mg twice daily, expansion cohort, any causality | – | patients with adverse event | 9%
O=C(OC(C(F)(F)F)C(F)(F)F)N1CCN(Cc2cccc(Oc3ccccc3)c2)CC1 | PET blocking study | rhesus monkey, brain Pons | 0.01 mg/kg, compound pretreatment, with: [18F]T-401 tracer | – | k2 | 0.089 min⁻¹
O=c1cc(-c2ccccc2)oc2ccccc12 | cyclic voltammetry | DMSO, 0.1 M Bu4NPF6 | 25 °C | – | half-wave potential | -1.59 V vs Ag/AgCl
COc1cc(/C=C/C(=O)O)ccc1O | – | human plasma | mean | – | plasma concentration | 1380 nM
NC(=O)N1c2ccccc2C=Cc2ccccc21 | PAMPA | artificial lipid membrane | 30 min | – | permeability | 68.9 ± 40.6 ×10⁻⁶ cm/s
COc1cccc2c1c(O)c(C(=O)N(C)c1ccc(C(F)(F)F)cc1)c(=O)n2C | – | mouse, CP model, serum | 0.154 µmol/kg, 4 weeks | – | serum AST | no effect
CC(C)(C(=O)N1CCOc2c(C#N)cncc2C1)C(F)F | refers to: contact dermatitis | human | oral, 15 mg twice daily, 14 days, multiple ascending dose | – | subjects with adverse event | 25%
Cc1ccc(Sc2ccccc2N2CCNCC2)c(C)c1 | refers to: abdominal pain | healthy adult women | oral, 10 mg daily, 12 days | – | participants with TEAE | 0%
O=C1CC[C@H](N2Cc3cc(N4CCN(CC5CCN(c6ccc([C@@H]7c8ccc(O)cc8CC[C@@H]7c7ccccc7)cc6)CC5)CC4)ccc3C2=O)C(=O)N1 | radiolabelled mass balance | Sprague-Dawley rat, female, feces | oral, 20 mg/kg, 0 to 168 h | – | dose excreted | 91.5%
N#Cc1ccc2c(c1)[C@H]1CCCN(C(=O)c3ccc4[nH]cnc4c3)[C@H]1C2 | – | human | 10 mg, day 7 | – | maximum ACTH level | 16.1 pmol/L
N#C[C@@]1(c2ccc3c(N)ncnn23)O[C@H](CO)[C@@H](O)[C@H]1O | – | beagle dog, male | oral, 6.5 mg/kg, capsule | – | apparent volume of distribution | 1.27 L/kg
COc1ccc2[nH]c([S+]([O-])Cc3ncc(C)c(OC)c3C)nc2c1 (centres unmarked) | – | human male | oral, dose not given, 2 h, with: fluvoxamine plus voriconazole | reference: inhibited over baseline | R/S ratio change | 1.47
Cn1cc(Nc2nccc(-c3ccc4c(c3)CN(C3COC3)CC[C@H]4NC(=O)c3cn(C(C)(C)C)nn3)n2)cn1 | – | human, whole blood | 150 mg twice daily, day 7 | reference: pre-dose baseline | NK cell count change | -15.3%
Cc1cc(Nc2cc3ncccc3c(N[C@@H]3C[C@H]4CC[C@@H](C3)N4CCC#N)n2)n[nH]1 | – | healthy human subjects | oral, 100 mg, 2 weeks, single ascending dose | – | sneezing incidence | 0%
O=C(COc1ccc(Cl)cc1)NC12CC(c3nnc([C@H]4C[C@@H](OC(F)(F)F)C4)o3)(C1)C2 | – | human both sexes | oral, 200 mg once daily, 14 days | – | postural dizziness participants | 14.3%
COc1c(C)c2c(c(O[C@@H]3O[C@H](C(=O)O)[C@@H](O)[C@H](O)[C@H]3O)c1C/C=C(\C)CCC(=O)O)C(=O)OC2 | – | healthy subjects, plasma | oral, 1 g mycophenolate mofetil | – | Cmax, mean | 46.9 ng/mL
CCn1ncc2c1-c1cnc(N)c(c1)O[C@H](C)c1cc(F)ccc1-c1nn(C)nc1C2 | – | athymic nude mouse, female, sample A PDX, plasma | po, 0.04 mg/kg BID, 12 h, 5 days dosing | – | Cmin, unbound | 0.4 ± 0.06 nM
CO[C@@H]1[C@H](OC(=O)N2CC(CCN3CCOCC3)C2)CC[C@]2(CO2)[C@H]1[C@@]1(C)O[C@@H]1CC=C(C)C | – | humans | subcutaneous, 0.6 mg twice weekly for 4 weeks, day 28 | reference: baseline | international normalized ratio | 0.01 ± 0.03
C[C@@H](NC(=O)N1C(=O)[C@H](Cc2ccnc(N)c2)[C@H]1C(=O)O)C1CCCCC1 | UPLC-MS/MS | healthy adult Chinese volunteers, plasma | continuous intravenous infusion, 1.5 mg/kg/h, day 6 of 5-day infusion, mean | – | t1/2 | 1.43 h

Repeated from above:
Structure (SMILES) | test | test system | setting | scale | endpoint | result
COc1cccc(OC)c1-c1cc(C(=O)NC2(C(=O)O)C3CC4CC(C3)CC2C4)nn1-c1ccc(C(=O)N(C)CCCN(C)CCCN(C)C(=O)CN2CCN(CC(=O)[O-])CCN(CC(=O)[O-])CCN(CC(=O)[O-])CC2)cc1C(C)C.[177Lu+3] (centres unmarked) | – | mouse HT-29 xenograft, small intestine | 4 h post injection, biodistribution | – | tissue uptake | 3.2 %ID/g
O=S(=O)(O)Oc1ccc(CCO)cc1O | – | human plasma | median | – | plasma concentration | 16.1 nM
O=C(NC[C@H]1CN(c2ccc(N3CCOCC3=O)cc2)C(=O)O1)c1ccc(Cl)s1 | Phoenix NLME, model A | human, atrial fibrillation patients, plasma | oral | – | typical population clearance | 89 mL/min
OC[C@H]1O[C@@H](c2ccc(F)c(Cc3cc4ccccc4s3)c2)[C@H](O)[C@@H](O)[C@@H]1O | – | Japanese type 1 diabetes patients | oral, 50 mg/day | reference: patients | hypoglycaemia adverse events | 7%
